Experimental data collected from several papers.
Values joined by “and” are separate records of one study, mostly repeats; a detail may differ. ± marks the error that the study gave.
Organism: Chikungunya virus

CC(C)(C)c1ccc(C(=O)Nc2cc3c(cc2OCc2ccccn2)CCC3)cc1 — EC90 (viral replication; NHDF): > 6000 nM
O=C(N1CCC2(CC1)C[C@@H](CN1CCCCS1(=O)=O)CCO2)C1(c2cc(F)cc(F)c2)CCCC1 — EC50 (viral replication): 10000 nM
CN(C)CCCN1c2ccccc2Sc2ccccc21 — inhibition (replicon luciferase activity; BHK-21 CHIKV replicon cells; 20 µM, 48 h): ≥ 80%
CC(C)(C)c1ccc(C(=O)Nc2cc3c(cc2OC(F)(F)F)CCCCC3)cc1 — EC90 (viral replication; NHDF): 3700 nM
N[C@H](CCC(=O)N[C@H](CCC[C@H](N)C(=O)O)C(=O)O)C(=O)O — infectivity (viral infection; concentration not given): 172% and 169% and 167% and 121%
Nc1ncnc2c([C@@H]3N[C@H](CO)[C@@H](O)[C@H]3O)c[nH]c12 — inhibition (viral replication; HeLa, AF 15561; 25 µM): 3.7%
COc1ccc(C(=O)/C=C/c2ccc(O)cc2)c(O)c1CC=C(C)C — inhibition (replicon luciferase activity; BHK-21 CHIKV replicon cells; 20 µM, 48 h): ≥ 80%
Nc1ncnc2c1ncn2[C@@H]1O[C@@H]2COP(=O)(O)O[C@H]3[C@@H](O)[C@H](n4cnc5c(=O)[nH]cnc54)O[C@@H]3COP(=O)(O)O[C@H]2[C@H]1O — fold enrichment (upregulated Reactome pathway, RNA sequencing, item: HATs acetylate histones (R-HSA-3214847); HFF-1; relative to: CHIKV-infected untreated): 2.79
N#Cc1c(Nc2ccc(F)cc2)n[nH]c1NS(=O)(=O)c1ccc2ccccc2c1 — EC50 (viral replication; Vero 76, S27): > 25000 nM
Cn1c(=O)c(C(=O)CCN2CCOCC2)c(O)c2ccccc21 — inhibition (virus particle release; 20 µM, added within 20 h post-infection): ~50%
CCc1cc(=O)n2c(=O)/c(=C/c3cccc4ccccc34)sc2n1 — inhibition (virus-induced cell death, MTS/PMS; BGM, Indian Ocean strain 899; 20 µg/mL): 29%
O=c1nc(NO)ccn1[C@@H]1O[C@H](CO)[C@@H](O)[C@H]1O — IC50 (viral replication, nLuc reporter; 181/25 nLuc-capsid): 880 ± 410 nM
CNc1nc(N)ncc1-c1cn([C@@H]2O[C@H](CO[P@@](=O)(N[C@@H](C)C(=O)OC(C)C)Oc3ccccc3)[C@@H](O)[C@@]2(C)F)cn1 — antiviral activity (concentration not given): inactive
COc1cc2c(cc1-c1cc(-c3ccc(C(C)(C)C)cc3)n[nH]1)CCCCC2 — EC90 (viral replication; NHDF): 1500 nM
NC(=O)NCC1CCOC2(CCN(C(=O)C3(c4ccccc4)CCCC3)CC2)C1 (centres unmarked) — EC50 (viral replication): ~10000 nM
CCN(CC)CCCC(C)Nc1c2ccc(Cl)cc2nc2ccc(OC)cc12 (centres unmarked) — antiviral activity (replicon Gluc reporter; BHK-21 CHIKV replicon Gluc reporter; concentration not given, dose-dependent): active
CCCCCCCCCCCCCCCC(=O)OCC(CSC[C@H](N)C(=O)N[C@@H](CO)C(=O)N[C@@H](CCCCN)C(=O)N[C@@H](CCCCN)C(=O)N[C@@H](CCCCN)C(=O)N[C@@H](CCCCN)C(=O)Nc1ccc(Cn2c(O)nc3c(N)nc(NCCCC)nc32)cc1)OC(=O)CCCCCCCCCCCCCCC (some centres unmarked) — infectivity (viral infection; concentration not given): 167% and 158% and 163%
CCN(CC)Cc1cc(Nc2ccnc3cc(Cl)ccc23)ccc1O — inhibition (replicon luciferase activity; BHK-21 CHIKV replicon cells; 20 µM, 48 h): ≥ 80%
COc1cc2c(cc1NC(=O)c1ccc(C(C)(C)C)cc1)CCCC2 — EC90 (viral replication): 390 nM
Cc1nc2c(=O)n(C)c(=O)nc-2n(C)n1 — antiviral activity (replicon Gluc reporter; BHK-21 CHIKV replicon Gluc reporter; concentration not given, dose-dependent): active
NC(=O)c1ncn([C@@H]2O[C@H](CO)[C@@H](O)[C@H]2O)n1 — EC50 (viral replication; BHK-21, CHIKV): 46000 nM
CCc1cc2c(cc1NC(=O)c1ccc(C(C)(C)C)cc1)CCCCC2 — EC90 (viral replication; NHDF): 1700 nM
O=C(N1CCC2(CC1)C[C@H](CN1CCCCS1(=O)=O)CCO2)C1(c2ccccc2)CCCC1 — EC50 (viral replication): 100 nM
CC(C)NC(=O)NCC1CCOC2(CCN(C(=O)C3(c4ccccc4)CCCC3)CC2)C1 (centres unmarked) — EC50 (viral replication): ~10000 nM
CC(C)(C)c1ccc(C(=O)Nc2cc3c(cc2O)CCCCC3)cc1 — EC90 (viral replication; NHDF): 400 nM
OCCN1CCN(CCCN2c3ccccc3Sc3ccc(C(F)(F)F)cc32)CC1 — inhibition (replicon luciferase activity; BHK-21 CHIKV replicon cells; 20 µM, 48 h): ≥ 80%
O=C(N1CCC2(CC1)CC(Oc1ccccn1)CCO2)C1(c2ccccc2)CCCC1 (centres unmarked) — EC50 (viral replication): ~1000 nM
CC(C)=CCC/C(C)=C/Cc1c(O)ccc(C(=O)/C=C/c2ccc(O)cc2)c1O — selectivity index (BHK-21 CHIKV replicon Gluc reporter; relative to: CC50 over EC50): 1.66
CN(C)S(=O)(=O)NCC1CCOC2(CCN(C(=O)C3(c4cccc(C(F)(F)F)c4)CCCC3)CC2)C1 (centres unmarked) — EC50 (viral replication; MRC-5; 6 h): 20000 nM

For quick reference, copied from above:
NC(=O)NCC1CCOC2(CCN(C(=O)C3(c4ccccc4)CCCC3)CC2)C1 (centres unmarked) — EC50 (viral replication): ~10000 nM
CCN(CC)CCCC(C)Nc1c2ccc(Cl)cc2nc2ccc(OC)cc12 (centres unmarked) — antiviral activity (replicon Gluc reporter; BHK-21 CHIKV replicon Gluc reporter; concentration not given, dose-dependent): active
CCCCCCCCCCCCCCCC(=O)OCC(CSC[C@H](N)C(=O)N[C@@H](CO)C(=O)N[C@@H](CCCCN)C(=O)N[C@@H](CCCCN)C(=O)N[C@@H](CCCCN)C(=O)N[C@@H](CCCCN)C(=O)Nc1ccc(Cn2c(O)nc3c(N)nc(NCCCC)nc32)cc1)OC(=O)CCCCCCCCCCCCCCC (some centres unmarked) — infectivity (viral infection; concentration not given): 167% and 158% and 163%
